{"data": "Assay results from different studies", "note": "Parts stem from different laboratories: compare values within a part only. Positions count from the first letter of the parent shown."}
{"data": "Sample 1", "target": "CCNA2, cyclin fold, Cln2 fusion (human)", "method": "yeast growth competition, sequencing", "medium": "yeast", "notes": "strong parent motif", "relative to": "not given", "direction": "higher = stronger binding", "starting sequence": "viral docking peptide; KGVKRKLFAEDSS"}
{"Substitution": "F8H", "normalised enrichment score": 0.52}
{"Substitution": "A9L", "normalised enrichment score": 6.15}
{"Substitution": "L7P", "normalised enrichment score": 0.223}
{"Substitution": "F8W", "normalised enrichment score": 4.32}
{"Substitution": "V3I", "normalised enrichment score": 5.39}
{"Substitution": "L7A", "normalised enrichment score": 0.407}
{"Substitution": "R5N", "normalised enrichment score": 1.09}
{"Substitution": "R5V", "normalised enrichment score": 3.14}
{"Substitution": "L7V", "normalised enrichment score": 0.862}
{"Substitution": "A9T", "normalised enrichment score": 5.98}
{"Substitution": "L7H", "normalised enrichment score": 0.204}
{"Substitution": "F8G", "normalised enrichment score": 0.792}
{"Substitution": "K6Y", "normalised enrichment score": 1.95}
{"Substitution": "D11K", "normalised enrichment score": 6.13}
{"Substitution": "R5H", "normalised enrichment score": 0.697}
{"Substitution": "L7G", "normalised enrichment score": 0.646}
{"Substitution": "D11V", "normalised enrichment score": 6.02}
{"Substitution": "R5K F8L", "normalised enrichment score": 0.888}
{"data": "Sample 2", "target": "tungstate, free oxyanion", "method": "microfluidic competitive inhibition", "medium": "in vitro, cell-free expressed", "concentration": "not given", "notes": "derived from inhibition constants, unchanged parent 2230 nM", "direction": "lower = stronger binding", "starting sequence": "PafA, mature enzyme, eGFP fusion (Elizabethkingia meningoseptica, UniProt Q9KJX5); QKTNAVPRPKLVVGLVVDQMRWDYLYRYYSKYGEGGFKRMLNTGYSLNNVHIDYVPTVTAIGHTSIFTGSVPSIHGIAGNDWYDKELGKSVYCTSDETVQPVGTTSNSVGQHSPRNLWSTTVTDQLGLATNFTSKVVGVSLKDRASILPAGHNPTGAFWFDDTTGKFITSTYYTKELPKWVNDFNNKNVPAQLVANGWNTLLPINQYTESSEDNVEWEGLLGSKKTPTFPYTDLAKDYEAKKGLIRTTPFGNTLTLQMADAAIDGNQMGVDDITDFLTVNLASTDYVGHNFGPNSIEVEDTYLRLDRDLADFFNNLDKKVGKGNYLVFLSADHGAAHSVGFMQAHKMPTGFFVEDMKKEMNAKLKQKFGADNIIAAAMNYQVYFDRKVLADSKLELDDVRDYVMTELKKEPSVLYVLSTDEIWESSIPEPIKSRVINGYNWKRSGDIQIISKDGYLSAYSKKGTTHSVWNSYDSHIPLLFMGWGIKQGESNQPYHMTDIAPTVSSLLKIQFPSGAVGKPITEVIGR"}
{"Substitution": "G525V", "oxyanion analog dissociation constant": "1.98 µM"}
{"Substitution": "F368V", "oxyanion analog dissociation constant": "3.5 µM"}
{"Substitution": "I509G", "oxyanion analog dissociation constant": "1.06 µM"}
{"Substitution": "G251A", "oxyanion analog dissociation constant": "1.79 µM"}
{"Substitution": "N42G", "oxyanion analog dissociation constant": "2.01 µM"}
{"Substitution": "A259G", "oxyanion analog dissociation constant": "2.38 µM"}
{"Substitution": "F341V", "oxyanion analog dissociation constant": "2.15 µM"}
{"Substitution": "T497V", "oxyanion analog dissociation constant": "2.12 µM"}
{"Substitution": "G514V", "oxyanion analog dissociation constant": "980 nM"}
{"Substitution": "E209V", "oxyanion analog dissociation constant": "2.19 µM"}
{"Substitution": "Y325G", "oxyanion analog dissociation constant": "1.32 µM"}
{"Substitution": "L202V", "oxyanion analog dissociation constant": "2.58 µM"}
{"Substitution": "V270G", "oxyanion analog dissociation constant": "2.18 µM"}
{"Substitution": "K365V", "oxyanion analog dissociation constant": "2.04 µM"}
{"data": "Sample 3", "target": "Prothrombin, mature alpha-thrombin (F2, Homo sapiens, UniProt P00734)", "method": "aptamer microarray, sandwich", "form": "DNA with 2'F-ANA", "medium": "in vitro", "concentration": "200 nM", "notes": "whole 15-mer aptamer, many near background", "with": "Cy3 exosite-II aptamer, 400 nM", "direction": "higher = stronger binding", "sequence": "GGTTGGTGTGGTTGG"}
{"Modification": "2'F-ANA at 5 7 10 11 12", "mean fluorescence intensity [a.u.]": 53.1}
{"Modification": "2'F-ANA at 4 5 6 7 11", "mean fluorescence intensity [a.u.]": 57.9}
{"Modification": "2'F-ANA at 2 3 4 5 8 10 15", "mean fluorescence intensity [a.u.]": 64.8}
{"Modification": "2'F-ANA at 2 5 6 9 11 14 15", "mean fluorescence intensity [a.u.]": 49.2}
{"Modification": "2'F-ANA at 7 14 15", "mean fluorescence intensity [a.u.]": 252}
{"Modification": "2'F-ANA at 1 2 5 6 8 9 10", "mean fluorescence intensity [a.u.]": 54.6}
{"Modification": "2'F-ANA at 4 6 8 9 12 14", "mean fluorescence intensity [a.u.]": 129}
{"Modification": "2'F-ANA at 2 3 4 5 8 12 14 15", "mean fluorescence intensity [a.u.]": 74.9}
{"data": "Sample 4", "target": "Transcription factor Sp1 (SP1, Homo sapiens, UniProt P08047, residues 1-785, full length assumed)", "method": "protein-binding microarray", "form": "double-stranded DNA, one strand shown", "medium": "in vitro", "concentration": "not given", "notes": "k-mer, scored over probes, only values ≥0.25", "direction": "higher = stronger binding", "sequence of UniProt P08047 (whole entry, looked up)": "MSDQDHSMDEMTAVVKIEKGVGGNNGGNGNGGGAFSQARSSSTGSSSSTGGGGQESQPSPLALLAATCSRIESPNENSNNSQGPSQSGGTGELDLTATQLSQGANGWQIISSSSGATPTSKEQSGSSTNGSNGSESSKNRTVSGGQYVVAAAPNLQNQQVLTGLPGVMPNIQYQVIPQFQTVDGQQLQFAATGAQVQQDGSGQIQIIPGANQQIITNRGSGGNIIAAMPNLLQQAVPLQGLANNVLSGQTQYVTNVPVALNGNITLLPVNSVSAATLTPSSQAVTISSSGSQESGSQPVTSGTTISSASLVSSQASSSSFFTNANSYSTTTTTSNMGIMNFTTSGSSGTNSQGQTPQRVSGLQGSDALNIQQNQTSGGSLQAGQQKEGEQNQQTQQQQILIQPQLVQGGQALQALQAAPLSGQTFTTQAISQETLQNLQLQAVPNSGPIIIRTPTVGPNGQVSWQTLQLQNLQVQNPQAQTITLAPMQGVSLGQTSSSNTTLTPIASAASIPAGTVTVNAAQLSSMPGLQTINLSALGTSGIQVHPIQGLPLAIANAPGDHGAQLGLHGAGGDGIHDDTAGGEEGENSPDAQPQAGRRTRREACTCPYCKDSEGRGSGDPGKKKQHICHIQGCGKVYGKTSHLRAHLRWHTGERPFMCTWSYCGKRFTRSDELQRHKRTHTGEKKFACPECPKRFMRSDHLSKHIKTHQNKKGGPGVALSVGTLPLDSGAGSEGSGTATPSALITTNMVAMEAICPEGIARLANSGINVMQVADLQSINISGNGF"}
{"Sequence": "TGTTAACA", "E-score": 0.279}
{"Sequence": "CATGTGTA", "E-score": 0.284}
{"Sequence": "ACTTTATG", "E-score": 0.253}
{"Sequence": "ACCTCCCC", "E-score": 0.413}
{"Sequence": "TACGCCCA", "E-score": 0.346}
{"Sequence": "AACGTTGT", "E-score": 0.28}
{"Sequence": "CCCACTTA", "E-score": 0.295}
{"Sequence": "ATTATGTA", "E-score": 0.253}
{"note": "A few entries again (sample 3):"}
{"Modification": "2'F-ANA at 5 7 10 11 12", "mean fluorescence intensity [a.u.]": 53.1}
{"Modification": "2'F-ANA at 4 5 6 7 11", "mean fluorescence intensity [a.u.]": 57.9}
{"Modification": "2'F-ANA at 2 3 4 5 8 10 15", "mean fluorescence intensity [a.u.]": 64.8}
{"Modification": "2'F-ANA at 2 5 6 9 11 14 15", "mean fluorescence intensity [a.u.]": 49.2}
{"Modification": "2'F-ANA at 7 14 15", "mean fluorescence intensity [a.u.]": 252}
{"Modification": "2'F-ANA at 1 2 5 6 8 9 10", "mean fluorescence intensity [a.u.]": 54.6}
{"Modification": "2'F-ANA at 4 6 8 9 12 14", "mean fluorescence intensity [a.u.]": 129}
